Measured values from different studies.
Protocols differ between the studies behind these lines. ± gives the spread as reported.

| SMILES | cell line | assay | setting | EC50 |
| --- | --- | --- | --- | --- |
| CC1=C(C2=C(C)C(=O)c3c(cc(O)c(O)c3C(C)C)C2=O)C(=O)c2cc(O)c(O)c(C(C)C)c2C1=O (racemic) | H23 human lung cancer | cell viability, ATP luminescence | 72 h | 0.38 ± 0.04 µM |
| Cc1ccc2nc(-c3ccc(F)c(F)c3)c(CN3CCC(c4ccccc4)CC3)n2c1 | CRL8155 | cell growth or viability | 48 h | > 50 µM |
| CC(C)C[C@H](NC(=O)[C@H](CC(=O)O)NC(=O)[C@H](Cc1ccc(O)cc1)NC(=O)CNC(=O)CN(C)C(=O)CCCC(=O)O)C(=O)N[C@@H](Cc1ccc(O)cc1)C(=O)N[C@@H](CCCNC(=N)N)C(=O)N[C@H](C(=O)N[C@@H](CCCNC(=N)N)C(=O)N[C@@H](CO)C(N)=O)C(C)C | human dermal microvascular endothelial cells | – | with: VEGF | 0.03 µM |
| CCOC(=O)c1c(C(C)C)oc2nc(N3CCCC3)ccc12 | CRL8155 | cell growth or viability | 48 h | > 50 µM |
| Cc1cc(N)c2ccccc2[n+]1CCCCCCCCCCCCCC[n+]1c(C)cc(N)c2ccccc21 | neuroblastoma tumour-initiating cells | sphere formation | 6 days, retreated on day 3, mean over lines | 0.00038 µM |
| CCC/C(=C\C1=C(OC)C(=O)c2ccccc2C1=O)C(=O)NOC | Pa03C cells | HIF1α reporter gene, luciferase reporter | 24 h, 1% oxygen hypoxia | 9.7 ± 1.24 µM |
| Cc1ccc(-c2nc3ccc(C)cn3c2CN2CCN(c3cccc(C(F)(F)F)c3)CC2)cc1 | CRL8155 | cell growth or viability | 48 h | 47.6 µM |
| FC(F)(F)c1ccnc(-c2cc(C(F)(F)F)ccn2)c1.FC(F)(F)c1ccnc(-c2cc(C(F)(F)F)ccn2)c1.[Cl-].[Cl-].[Ru+2].c1csc(-c2ccc(-c3ccc(-c4ccc(-c5nc6c7cccnc7c7ncccc7c6[nH]5)s4)s3)s2)c1 | SK-MEL-28 | cell viability | 100 J/cm2 light, normoxia, with: visible light 400-700 nm | 0.01 µM |
| CCC/C(=C\C1=C(C(F)(F)F)C(=O)c2ccccc2C1=O)C(=O)N(CC)CC | Pa03C cells | 3D spheroid co-culture | co-culture with CAF19 | 6.4 µM |
| Cc1ccc2nc(-c3ccccc3)c(CN3CCN(c4ccccc4)CC3)n2c1 | CRL8155 | cell growth or viability | 48 h | > 50 µM |
| CCc1ccccc1COc1ccccc1C(=O)Nc1cccnc1 | HCEC | sphingomyelin synthesis, inhibitor | 6 h | 3.99 µM |
| Cc1ccc2nc(-c3ccccc3)c(CN3CCN(c4ccc(Cl)cc4)CC3)n2c1 | CRL8155 | cell growth or viability | 48 h | 49 µM |
| CCCCOc1nc(N)c2[nH]c(=O)n(CCCN(CCCN3CCOCC3)Cc3cccc(CC(=O)OC)c3)c2n1 | human PBMC | IFNα induction, inducer, ELISA, measured: IFNα | 24 h | 0.004 µM |
| Cc1ccc2nc(-c3ccc(F)c(F)c3)c(CN3CCN(c4cccc(C(F)(F)F)c4)CC3)n2c1 | CRL8155 | cell growth or viability | 48 h | > 50 µM |
| Nc1nc2c(ncn2[C@@H]2O[C@@H]3COP(=O)(O)O[C@@H]4[C@@H](F)[C@H](n5cnc6c(N)ncnc65)O[C@@H]4CSP(=O)(O)O[C@@H]2[C@@H]3O)c(=O)[nH]1 | THP1-Dual | IRF reporter, agonist | 24 h | > 50 µM |
| CC(C)[C@H](C(=O)Nc1ncc(F)s1)c1ccc(Cl)cc1 | HEK293 expressing human GPR43 | NF-κB reporter gene, luciferase | 6 h, with: 10 ng/mL TNF-α | 12.1 µM |
| COc1cccc(Cc2cc(C)nn(S(=O)(=O)c3cccc4c(N(C)C)cccc34)c2=O)c1 | human neutrophils | calcium flux, agonist | – | 26 ± 13.8 µM |
| Cc1cc2cc(O)c(O)cc2c(O)c1-c1c(C)cc2cc(O)c(O)cc2c1O | PC3-ML | ATP-lite viability | 72 h | 12.6 µM |
| CC(C)C[C@H](NC(=O)[C@H](CC(N)=O)NC(=O)[C@H](Cc1ccc(O)cc1)NC(=O)CN(C)C(=O)CCCCC(=O)O)C(=O)N[C@@H](Cc1ccc(O)cc1)C(=O)N[C@@H](CCCNC(=N)N)C(=O)N[C@H](C(=O)N[C@@H](CCCNC(=N)N)C(=O)N[C@@H](CO)C(N)=O)C(C)C | human dermal microvascular endothelial cells | – | with: VEGF | 0.005 µM |
| C(=C/c1ccccc1)/c1ccccc1 | MOLT-3 | apoptosis, flow cytometry, measured: caspase-3 activity | 24 h, 50% apoptosis induction | 44 µM |
| CCOC(=O)c1c(C)oc2nc(N3CCN(c4ccccc4)CC3)ccc12 | CRL8155 | cell growth or viability | 48 h | > 50 µM |
| CCC/C(=C\C1=C(F)C(=O)c2ccccc2C1=O)C(=O)N(CC)CC | NF90-8 cells | HIF1α reporter gene, luciferase reporter | 24 h, 1% oxygen hypoxia | 9.7 ± 1.21 µM |
| O=C(Cc1ccc([N+](=O)[O-])cc1)N[C@@H](Cc1c[nH]c2ccccc12)C(=O)NCC1(c2ccccn2)CCCCC1 | human neutrophils | calcium mobilisation, agonist | with: 2.5 mM probenecid | 5.5 ± 1.5 µM |

A few entries again:
| SMILES | cell line | assay | setting | EC50 |
| --- | --- | --- | --- | --- |
| CCOC(=O)c1c(C(C)C)oc2nc(N3CCCC3)ccc12 | CRL8155 | cell growth or viability | 48 h | > 50 µM |
| CCC/C(=C\C1=C(F)C(=O)c2ccccc2C1=O)C(=O)N(CC)CC | NF90-8 cells | HIF1α reporter gene, luciferase reporter | 24 h, 1% oxygen hypoxia | 9.7 ± 1.21 µM |
| CCC/C(=C\C1=C(C(F)(F)F)C(=O)c2ccccc2C1=O)C(=O)N(CC)CC | Pa03C cells | 3D spheroid co-culture | co-culture with CAF19 | 6.4 µM |
